# Experimental data gathered from unrelated publications.
# A part holds a random share of what one study measured.

# Block 1
# Target: Interferon regulatory factor 3, full length, phosphomimetic (IRF3, Homo sapiens, UniProt Q14653, residues 1-427, S386D/S396D/S398D/S402D/T404D/S405D)
# Method: protein-binding microarray
# Molecule type: double-stranded DNA, one strand shown
# Matrix: in vitro
# Concentration: 2540 nM top
# Setting: 60-bp whole probe
# With: salmon DNA 0.4 mg/ml
# Baseline: random background probes
# Reading: higher = stronger binding
# All sequences stand within: GCCTAGCAC … GTCTTGATTCGCTTGACGCTGCTG
# Construct (chain): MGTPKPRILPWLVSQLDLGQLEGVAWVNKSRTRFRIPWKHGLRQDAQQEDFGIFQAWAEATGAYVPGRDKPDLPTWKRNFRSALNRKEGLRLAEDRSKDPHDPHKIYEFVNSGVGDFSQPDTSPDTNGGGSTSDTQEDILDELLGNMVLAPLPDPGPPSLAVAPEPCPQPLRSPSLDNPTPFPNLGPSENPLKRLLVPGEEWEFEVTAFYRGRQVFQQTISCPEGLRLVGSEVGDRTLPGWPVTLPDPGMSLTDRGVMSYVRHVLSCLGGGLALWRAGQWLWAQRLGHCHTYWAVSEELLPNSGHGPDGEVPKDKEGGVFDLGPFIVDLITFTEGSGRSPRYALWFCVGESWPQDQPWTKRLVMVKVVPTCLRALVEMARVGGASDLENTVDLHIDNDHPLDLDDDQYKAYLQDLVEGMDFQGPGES
Strand,fitted relative affinity
GACGATCTCAGTATCGTGACGTGCTAG,0.834 z-score
GTAGGTTTCGACACTGGGTTAGTGCTA,2.63 z-score
GACGATATCCGACTGGAGACGTGCTAG,0.679 z-score
TCAAATGTCCTTTCTCCAACTGTGCTA,5.17 z-score
GACGGTATGGGACTGGGGACGTGCTAG,-0.641 z-score
GACCATATCGGGACTGGAGACGTGCTA,0.869 z-score
GACGAACTGTGGACTGGAGACGTGCTA,-0.544 z-score
TTAGACCTGGGGTATCGATTAGTGCTA,-0.635 z-score

# Block 2
# Target: Replicase polyprotein 1ab, main protease (rep, Severe acute respiratory syndrome coronavirus 2, UniProt P0DTD1)
# Effect on: enzyme activity
# Action: inhibitor
# Setting: without DTT
Compound,IC50 [nM]
COc1cc(C(=S)N2CCOCC2)ccc1O,1300
Cc1ccc(S(=O)(=O)N[C@@H](Cc2ccccc2)C(=O)CCl)cc1,1400
O=C1OC2(c3ccccc31)c1cc(Br)c(O)c(Br)c1Oc1c2cc(Br)c(O)c1Br,4200
C=CC(=O)c1ccc2ccccc2c1,1200

# Block 3
# Cell line: HEK-293T/ACE2
# Concentration: 10 µM
# Time: 16 h
# Baseline: vehicle
SMILES,viability
CC(=O)N1CCN(c2ccc(OCC3COC(Cn4ccnc4)(c4ccc(Cl)cc4Cl)O3)cc2)CC1 (centres unmarked),103%
COC1=CC(=O)C[C@@H](C)[C@]12Oc1c(Cl)c(OC)cc(OC)c1C2=O,100%
Cc1cccc(Nc2ccncc2S(=O)(=O)NC(=O)NC(C)C)c1,99.5%
CC1(C)O[C@@H]2C[C@H]3[C@@H]4CCC5=CC(=O)C=C[C@]5(C)[C@@]4(F)[C@@H](O)C[C@]3(C)[C@]2(C(=O)CO)O1,103%

# Block 4
# Target: Replicase polyprotein 1ab, nsp13 helicase (rep, Severe acute respiratory syndrome coronavirus 2, UniProt P0DTD1)
# Action: inhibitor
# Concentration: 20 µM
SMILES,inhibition
COc1ccccc1N1CCN(CCCCN2C(=O)c3ccccc3C2=O)CC1,0.84%
O=C(O)c1ccc(-n2nc(-c3ccccc3O)nc2-c2ccccc2O)cc1,-3.69%
C[C@]12CC[C@@H]3c4ccc(OC(=O)N(CCCl)CCCl)cc4CC[C@H]3[C@@H]1CC[C@@H]2OP(=O)(O)O,-4.64%
CC(C)[C@H]1CC[C@H](C(=O)N[C@H](Cc2ccccc2)C(=O)O)CC1,3.7%
O=C(CNC(=O)c1ccc(Cl)cc1)NO,4.3%
C=C1C[C@]23C[C@@]1(O)CC[C@H]2[C@@]12C=C[C@H](O)[C@@](C)(C(=O)O1)[C@H]2[C@@H]3C(=O)O,-4.04%
CCN(CC)CCCCNc1ncc2cc(-c3c(Cl)cccc3Cl)c(NC(=O)NC(C)(C)C)nc2n1,-2.02%
CSc1nc(NC2CCCC2)c([N+](=O)[O-])c(NC2CCCC2)n1,3.33%
NC(CO)(CO)CO,9.03%
CC(O)c1cc(C(=O)N[C@@H](C)Cn2ccc(-c3ccc(C#N)c(Cl)c3)n2)n[nH]1 (some centres unmarked),1.42%
CCc1cc2c(cc1CC)CC(NC[C@H](O)c1ccc(O)c3[nH]c(=O)ccc13)C2,0.46%
Cc1cccc(C)c1NC(=O)C[N+](C)(C)C,2.21%
C[C@@H]1CCC[C@H](C)N1NC(=O)c1ccc(Cl)c(S(N)(=O)=O)c1,2.14%
Nc1ccc(C(=O)O)cc1,-6.27%
CC(C)N(CCNC(=O)CN1CCCC1=O)C(C)C,-0.84%
CNCc1ccc(-c2cc(-c3nc(-c4ccc(S(=O)(=O)C(C)C)cc4)cnc3N)on2)cc1,15.7%
COc1cc2ncnc(Nc3cccc(Cl)c3F)c2cc1OC(=O)N1CCN(C)C[C@H]1C,10.3%
O=C1NC(=S)NC(=O)C1C(=O)Nc1ccccc1,3.72%
COc1cc(N)c(Cl)cc1C(=O)OCCN1CCCCC1,4.4%
C[C@H](N=C(NC#N)Nc1cccc2ncccc12)c1ccccc1,-1.51%
C=C1/C(=C\C=C2/CCC[C@]3(C)[C@@H]([C@H](C)/C=C/C=C/C(O)(CC)CC)CC[C@@H]23)C[C@@H](O)C[C@@H]1O,18.1%
CN1CCc2c(c3ccccc3n2Cc2ccc(C(=O)NO)cc2)C1,3.7%
Oc1ccc(Cl)cc1,2.96%
Cc1ccc(-c2c(-c3nn(C)c4ncnc(N5CC[C@H](N6CCCCC6)C5)c34)cnn2C)cc1,3.39%
O=C1NC(=O)C(=Cc2ccc(-c3ccc(F)cc3)o2)S1 (stereo in doubt),7.49%

# Block 5
# Target: Centromere-binding protein 1, full length, His-tagged (CBF1, Saccharomyces cerevisiae, UniProt P17106, residues 1-351)
# Sequence of UniProt P17106 (whole entry, looked up): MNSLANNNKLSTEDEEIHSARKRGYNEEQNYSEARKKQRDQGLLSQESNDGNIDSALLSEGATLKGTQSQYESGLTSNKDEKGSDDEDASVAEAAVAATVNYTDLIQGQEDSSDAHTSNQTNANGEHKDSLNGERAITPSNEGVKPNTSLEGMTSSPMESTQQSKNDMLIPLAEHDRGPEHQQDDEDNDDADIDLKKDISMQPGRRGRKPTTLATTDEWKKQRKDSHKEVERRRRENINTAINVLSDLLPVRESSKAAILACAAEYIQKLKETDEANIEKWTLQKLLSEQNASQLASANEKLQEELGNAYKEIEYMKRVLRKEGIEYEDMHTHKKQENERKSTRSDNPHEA
# Method: competition protein-binding microarray
# Molecule type: double-stranded DNA, one strand shown
# Matrix: in vitro
# Concentration: 2 µM
# Setting: whole 60-bp probe, lowest competitor level
# With: Pho4 competitor, 0.05 µM
# Reading: higher = stronger binding
# All sequences stand within: … GTCTTGATTCGCTTGACGCTGCTG
Strand,fluorescence intensity
AGCCTTCCCGGCAGATTAATTCAATGGGAGTTGCCG,56.7 a.u.
CTTCTGTAAATTTGTCACCCAACTTGACGCGCCCCG,91.4 a.u.
AATAGGCTTTGCCTACACGTGACTCGTATTTGGTGT,5220 a.u.
TGACCGTTTTGTCTTCAGGTGATGAAGCAAACAACT,114 a.u.
CCGTCGAAACAATGGCAGGTGAAGCAGTTTCGGAAT,83.9 a.u.

# Block 6
# Target: Ras GTPase-activating protein-binding protein 1, full length (G3BP1, Homo sapiens, UniProt Q13283)
# Sequence of UniProt Q13283 (whole entry, looked up): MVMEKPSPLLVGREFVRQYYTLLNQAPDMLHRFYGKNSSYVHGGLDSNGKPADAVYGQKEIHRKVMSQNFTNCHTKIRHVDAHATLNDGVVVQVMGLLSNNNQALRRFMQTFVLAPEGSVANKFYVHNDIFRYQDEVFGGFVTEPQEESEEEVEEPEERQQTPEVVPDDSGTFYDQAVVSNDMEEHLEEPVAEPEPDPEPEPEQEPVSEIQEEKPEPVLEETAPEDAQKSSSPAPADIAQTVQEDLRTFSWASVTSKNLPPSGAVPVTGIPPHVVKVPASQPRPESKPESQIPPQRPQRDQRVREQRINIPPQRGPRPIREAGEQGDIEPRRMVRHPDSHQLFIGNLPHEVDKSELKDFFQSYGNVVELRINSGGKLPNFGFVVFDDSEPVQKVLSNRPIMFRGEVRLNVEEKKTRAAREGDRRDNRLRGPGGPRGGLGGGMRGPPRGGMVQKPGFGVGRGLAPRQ
# Method: RNA Bind-n-Seq
# Molecule type: RNA
# Matrix: in vitro
# Concentration: 200 nM
# Setting: whole 134-nt RNA, ends assumed
# With: 150 mM LiCl
# Baseline: input library
# Reading: higher = stronger binding
# All molecules: 7-deaza-guanosine replaces G
# All sequences stand within: GGGAGUUCUACAGUCCGACGAUC … UGGAAUUCUCGGGUGUCAAGG
Strand,log2 enrichment
CAAGUCCUGUGCUACACAUCGUAUGUACCGAAUCGGGUGGGUGGGUUUUUUUGGGAAAGUAUUAUGUUACGCCGUUCGGAUCUGCACUUC,-0.2
AAGUCCUGUGCUACACAUCGUAUGUACCGAAUCGGGCCCCGGCCCCGGGCCCCGGGGAAAGUAUUAUGUUACGCCGUUCGGAUCUGCACU,-1.25
CUGUGCUACACAUCGUAUGUACCGAAUCGGGGUUUUUUUGGGGUUUUUUUGGGGAAAGGGGAAAGUAUUAUGUUACGCCGUUCGGAUCUG,1.19
UAACUUUAGAGGAGGAUCUGAUGGAUAUGGCAGUGGACGCGGAUUUGGGGAUGGCUAUAAUGGGUAUGGAGGAGGACCUGGAGGUGGCAA,-0.0698
UGGCCCUGGUGGCAUGCGGGGAGGAAGAGAUGGCCUCAUGGAUCGUGGUGGUCCCGGUGGAAUGUUCAGAGGUGGCCGUGGUGGAGACAG,0.0125
UCAAGUCCUGUGCUACACAUCGUAUGUACCGAAUCGGGGAAAGGGAAAGGAAAGGAAAGUAUUAUGUUACGCCGUUCGGAUCUGCACUUC,-0.651
CCUCAAGUCCUGUGCUACACAUCGUAUGUACCGAAUCGGGAGGGAGGGUGGGAAAGUAUUAUGUUACGCCGUUCGGAUCUGCACUUCCAG,-0.508

# Some of these lines once more (block 1):
Strand,fitted relative affinity
TCAAATGTCCTTTCTCCAACTGTGCTA,5.17 z-score
GACGGTATGGGACTGGGGACGTGCTAG,-0.641 z-score
GACCATATCGGGACTGGAGACGTGCTA,0.869 z-score
GACGAACTGTGGACTGGAGACGTGCTA,-0.544 z-score
